Values quoted from earlier work, collected from citations in different studies.
Compare with care: the assays were run in different laboratories. Numbers after ± are the reported error. Values after ≈ are worked out from the molar mass of the structure shown.
Chain of UniProt Q9UBF8 (whole entry, looked up): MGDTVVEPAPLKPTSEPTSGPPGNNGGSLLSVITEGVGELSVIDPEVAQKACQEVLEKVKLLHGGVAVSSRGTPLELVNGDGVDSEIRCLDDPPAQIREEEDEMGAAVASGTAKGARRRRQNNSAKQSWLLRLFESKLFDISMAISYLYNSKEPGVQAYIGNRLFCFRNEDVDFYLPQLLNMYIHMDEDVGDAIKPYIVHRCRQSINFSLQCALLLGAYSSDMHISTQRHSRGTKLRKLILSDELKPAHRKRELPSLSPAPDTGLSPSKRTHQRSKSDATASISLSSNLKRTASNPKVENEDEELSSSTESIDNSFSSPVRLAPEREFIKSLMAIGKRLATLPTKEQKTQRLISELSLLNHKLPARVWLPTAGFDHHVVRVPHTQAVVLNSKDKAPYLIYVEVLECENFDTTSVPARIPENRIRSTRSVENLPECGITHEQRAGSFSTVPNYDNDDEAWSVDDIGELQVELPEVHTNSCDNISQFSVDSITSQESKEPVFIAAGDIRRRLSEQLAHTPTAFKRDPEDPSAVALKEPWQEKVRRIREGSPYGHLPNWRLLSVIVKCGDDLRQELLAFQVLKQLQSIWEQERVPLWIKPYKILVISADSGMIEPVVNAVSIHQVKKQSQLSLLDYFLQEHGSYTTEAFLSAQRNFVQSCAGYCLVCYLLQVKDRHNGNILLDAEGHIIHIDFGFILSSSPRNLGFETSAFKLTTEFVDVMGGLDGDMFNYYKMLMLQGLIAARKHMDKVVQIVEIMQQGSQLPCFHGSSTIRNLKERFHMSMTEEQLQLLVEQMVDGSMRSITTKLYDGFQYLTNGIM

CC1(C)S[C@@H]2[C@H](NC(=O)[C@H](N)c3ccccc3)C(=O)N2[C@H]1C(=O)O
MIC (Pseudomonas aeruginosa; clinical isolate RKI-No_48/09): > 16 µg/mL

C=CC(=O)N1CCC(C(=O)NCC(=O)N2CCN(c3nc(-c4cnc(N)nc4C(F)F)nc(N4CCOCC4)n3)CC2)CC1
remaining activity (Phosphatidylinositol 4-kinase beta (PI4KB, Homo sapiens, UniProt Q9UBF8); kinase activity; 1 µM): 100%

COC(=O)CC1CCN(C(=O)c2cc(-c3cccs3)nn2-c2ccccc2)CC1
inhibition (human monocytes; phagocytosis of anti-D RBCs; 5 µM, commercial sample): > 69%

Nc1cccc2c1C(=O)N(C1CCC(=O)NC1=O)C2=O (centres unmarked)
relative potency (T cells; T-cell co-stimulation; reference: over lenalidomide): 10 fold

CCCN(CCC)S(=O)(=O)c1ccc(C(=O)O)cc1
Ki (substrate uptake, inhibitor; human kidney slices; 10 min, added: benzylpenicillin 0.1 µM): 3 µM

CCCC(C)(C)C(=O)O
EC10 (CALUX reporter cell lines; reporter gene; cell-total, maximum across): 38 µM

CC(F)(F)c1cc(F)ccc1-c1sc2cc(O)ccc2c1Oc1ccc(/C=C/C(=O)O)cc1
cell growth (MDA-MB-468; 10 µM): no effect

CO[C@]1(C(=O)N[C@@H](C)c2ccc(-n3cc(F)cn3)nc2)CC[C@H](c2nc(C)cc(Nc3cc(C)[nH]n3)n2)CC1
GI50 (LC-2/AD (CCDC6-RET); cell growth): 0.004 µM

COc1ccccc1Oc1cccc(CN2CCC(NC(=O)C3CC(=O)Nc4ccccc43)CC2)c1 (centres unmarked)
EC50 (human CCR8 V109A mutant (TM3); IP accumulation, agonist): 0.033 µM

CCOC(=O)c1nn(-c2ccccc2)c(C#N)c1NC(=O)c1nn(CC)cc1Br
inhibition (human monocytes; phagocytosis of anti-D RBCs; 5 µM, commercial sample): > 69%

Nc1cc(C(F)(F)F)c(-c2nc(N3CCOCC3)nc(N3CCOCC3)n2)cn1
GI50 (CAL-27): 1.52 µM

CCCC(CCC)C(=O)O
EC10 (CALUX reporter cell lines; reporter gene; cell-total, maximum across): 110 µM

CNC(C)C1CCC(N)C(OC2C(N)CC(N)C(OC3OCC(C)(O)C(NC)C3O)C2O)O1 (centres unmarked)
MIC (Pseudomonas aeruginosa; clinical isolate RKI-No_696/15): 2 µg/mL (≈ 4.19 µM)

O=c1[nH]c(=O)n([C@@H]2O[C@H](CO)[C@@H](O)[C@@H]2F)cc1CCCC[18F]
uptake selectivity ratio (RG2 expressing HSV1-tk; 2 h; reference: HSV1-tk over wild-type RG2): 7.8 ± 4.3

O=C(Nc1ccc(C(F)(F)F)cc1)N1CCC2(CC1)C(=O)N(c1ccccn1)[C@H]2c1ccccc1
IC50 (TRPV1; calcium flux, antagonist; HEK293; added: capsaicin): 0.013 µM

NC(=S)NN=Cc1ncccc1N
cell survival (human cervical cancer cells; concentration not given, clinically attainable concentrations and times, added: cisplatin plus radiation): 10%

O=S(=O)(O)O
Km (Ehrlich ascites tumour cells; anion exchange, substrate; added: Cl-): ~2000 µM

CCCCCC(CCC)C(=O)O (centres unmarked)
EC10 (CALUX reporter cell lines; reporter gene; cell-total, minimum across): 3 µM

O=C(c1ccc(Cl)cc1)N(Cc1ccccc1)C1CCCCC1
cytokine release (primary microglia; refers to: IL-1β, IL-6, TNF-α; concentration not given, added: LPS): decreased

Cc1c(C#N)cccc1[C@@H](C)Nc1nnc(C)c2cnc(N3CCOCC3)cc12
IC50 (DLD-1; ERK phosphorylation, In-Cell Western, refers to: phospho-ERK): 0.0233 ± 0.0146 µM

Cc1ncccc1NC(=O)c1ccc2c(c1)C(=O)C[C@@H]1C[C@@](O)(c3ccccc3)[C@H](O)C[C@@]21Cc1ccccc1
inhibition (A549; IL-6 release; concentration not given): 60 to 80%

O=c1[nH]c(=O)n([C@H]2C[C@H](O)[C@@H](CO)O2)cc1CCCCC[18F]
uptake selectivity ratio (RG2 expressing HSV1-tk; 2 h; reference: HSV1-tk over wild-type RG2): 19.9 ± 6.9

O=C(NCc1ccc(C(F)(F)F)nc1N1CCOCC1)Nc1cccc2[nH]ncc12
IC50 (TRPV1; calcium flux, antagonist; HEK293; added: capsaicin): 0.012 µM

O=c1[nH]c(=O)n([C@@H]2O[C@H](CO)[C@@H](O)[C@@H]2F)cc1CCC[18F]
uptake selectivity ratio (RG2 expressing HSV1-tk; 2 h; reference: HSV1-tk over wild-type RG2): 5 ± 0.7

C=CCCC(=O)O
EC10 (CALUX reporter cell lines; reporter gene; cell-total, maximum across): 76 µM

O=c1[nH]c(=O)n([C@@H]2O[C@H](CO)[C@@H](O)[C@@H]2F)cc1CCCCC[18F]
uptake selectivity ratio (RG2 expressing HSV1-tk; 2 h; reference: HSV1-tk over wild-type RG2): 5.5 ± 2.3

O=C1c2ccncc2C(=O)c2c1[nH]c1ccccc21
minimum effective concentration (A549; mitochondrial fission, inhibitor): 0.5 µM

C[C@H]1COCCN1c1nc(-c2cnc(N)cc2C(F)F)nc(N2CCOCC2)n1
GI50 (SK-N-AS): 0.402 µM

C=CCC(CCC)C(=O)O (centres unmarked)
EC10 (CALUX reporter cell lines; reporter gene; cell-total, maximum across): 110 µM

COc1ccccc1Oc1cccc(CN2CCC3(CC2)C(=O)NCN3CCc2ccccc2)c1
EC50 (human CCR8 F84A mutant (TM2); IP accumulation, agonist): 0.014 µM

CCCC(C)C(=O)O (centres unmarked)
EC10 (CALUX reporter cell lines; reporter gene; cell-total, maximum across): 41 µM

Cc1ncccc1NC(=O)c1ccc2c(c1)CC[C@@H]1C[C@@](O)(C(F)(F)F)CC[C@@]21Cc1ccccc1
inhibition (A549; TNF-alpha release; concentration not given): 60 to 80%
